Experimental data collected from several papers.
Protocols differ between the studies behind these lines.
Target: Cytochrome P450 1A2 (CYP1A2, Homo sapiens, UniProt P05177)
Sequence of UniProt P05177 (whole entry, looked up): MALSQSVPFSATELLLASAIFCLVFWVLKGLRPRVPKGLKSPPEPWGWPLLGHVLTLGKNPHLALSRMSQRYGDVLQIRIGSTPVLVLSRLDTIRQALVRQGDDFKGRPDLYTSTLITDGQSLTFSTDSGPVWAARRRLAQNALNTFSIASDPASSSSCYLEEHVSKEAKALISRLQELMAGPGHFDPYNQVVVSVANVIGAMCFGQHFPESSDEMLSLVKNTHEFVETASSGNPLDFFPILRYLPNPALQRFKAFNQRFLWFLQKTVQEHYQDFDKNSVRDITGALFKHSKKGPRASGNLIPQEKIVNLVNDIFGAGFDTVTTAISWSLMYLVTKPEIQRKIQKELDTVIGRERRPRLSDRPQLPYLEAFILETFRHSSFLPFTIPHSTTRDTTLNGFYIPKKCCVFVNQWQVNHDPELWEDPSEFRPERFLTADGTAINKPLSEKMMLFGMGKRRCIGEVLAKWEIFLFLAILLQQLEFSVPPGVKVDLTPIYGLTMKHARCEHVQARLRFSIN
Effect on: enzyme activity
Mode: inhibitor

Compound | method | host | matrix | time | pH | IC50
O=c1nc(NO)ccn1[C@@H]1O[C@H](CO)[C@@H](O)[C@H]1O |  | human | liver microsomes | 30 min | pH 7.4 | 74 µM
O=C(O)c1ccc(/C=C2\SC(=S)N(Cc3cccc(C(F)(F)F)c3)C2=O)cc1 |  | human | liver microsomes |  |  | 18.9 µM
C[C@](C(=O)NC1CCC(F)(F)CC1)(c1cncnc1)N(C(=O)[C@H](F)Cl)c1ccc(OC(F)(F)F)cc1 |  |  |  | 10 (unit not given) |  | > 50 µM
Cc1cc(/C=C/C#N)cc(C)c1Oc1nc(NC2CCN(Cc3ccc(S(C)(=O)=O)cc3)CC2)nc2ncccc12 |  | human | liver microsomes | 10 min |  | 56.6 µM
COc1c(C(=O)/C=C/c2ccc(F)cc2)c(O)c(OC)c2occc12 |  |  |  | 15 min | pH 7.4 | > 10 µM
CC1CCC2(OC1)OC1CC3C4CC=C5CC(OC6OC(CO)C(OC7OC(CO)C(O)C7O)C(O)C6OC6OC(C)C(O)C(O)C6O)CCC5(C)C4CCC3(C)C1(O)C2C (centres unmarked) |  | human | liver microsomes | 1 h | pH 7.4 | 6.44 µM
COC(=O)c1ccc2c(c1)NC(=O)/C2=C(\Nc1ccc2c(c1)CCN2C(=O)CN1CCOCC1)c1ccccc1 |  | human | liver microsomes | 10 min |  | > 80 µM
CCC(=O)N(C)c1ccc(Cl)c(Cl)c1 |  |  |  | 5 min |  | > 25 µM
C=CC(=O)Nc1cc(Nc2nccc(-c3cn(C)c4ccccc34)n2)c(OCC(F)(F)F)nc1N(C)CCN(C)C |  |  | liver microsomes |  |  | > 100 µM
NC(=O)c1c(F)ccc(OCc2nc3cc(Cl)cnc3s2)c1F | fluorescence |  |  |  |  | > 33.7 µM
C=C(C)C(=O)Nc1ccc(-c2c(-c3ccc(Oc4nccc(C)n4)cc3)c3c(N)ncnc3n2C)cc1 |  |  |  |  |  | > 30 µM
Cc1c(NC(=O)c2ccc3c(c2)CC[C@@H]2C[C@@](O)(C(F)(F)F)CC[C@@]32Cc2ccccc2)ccc[n+]1[O-] |  |  |  |  |  | > 100 µM
C[C@@H](c1ccn(Cc2ccc(Cl)cc2Cl)n1)[C@](O)(Cn1cnnn1)c1ccc(F)cc1F |  | human | liver microsomes |  |  | > 100 µM
COc1ccc2c(c1OCc1ccccc1)C[C@@H](C(=O)O)N(c1nc3ccc(C#N)cc3o1)C2 |  | human | liver microsomes | 15 min | pH 7.4 | > 50 µM
C[C@@H](c1ccn(Cc2ccc(OC(F)(F)F)cc2)n1)[C@](O)(Cn1cnnn1)c1ccc(F)cc1F |  | human | liver microsomes |  |  | > 100 µM
O=C1c2oc3cc(O)c(O)cc3c2C(=O)c2oc3cc(O)c(O)cc3c21 |  | human | liver microsomes | 1 h | pH 7.4 | 3.2 µM
O=C(NC1CCC(F)(F)CC1)C(c1cncnc1)N(C(=O)C(F)Cl)c1ccc(-c2cncs2)cc1 (centres unmarked) |  |  |  | 10 (unit not given) |  | 24.3 µM

Excerpt of the above:
Compound | method | host | matrix | time | pH | IC50
CCC(=O)N(C)c1ccc(Cl)c(Cl)c1 |  |  |  | 5 min |  | > 25 µM
C=CC(=O)Nc1cc(Nc2nccc(-c3cn(C)c4ccccc34)n2)c(OCC(F)(F)F)nc1N(C)CCN(C)C |  |  | liver microsomes |  |  | > 100 µM
COc1ccc2c(c1OCc1ccccc1)C[C@@H](C(=O)O)N(c1nc3ccc(C#N)cc3o1)C2 |  | human | liver microsomes | 15 min | pH 7.4 | > 50 µM
